Published values from different studies.
Lines come from different studies, so protocols differ. ± gives the spread as reported.

With `O=C(O[C@@H]1Cc2c(O)cc(O)cc2O[C@@H]1c1cc(O)c(O)c(O)c1)c1cc(O)c(O)c(O)c1` the degradation was 36.5 ± 3.06% (UV-Vis; PBS; 0.02 mg/mL, 5 h, pH 7.4).
`C[C@H](NC(=O)[C@H](Cc1cnc[nH]1)NC(=O)[C@H](CO)NC(=O)[C@@H](N)CC(=O)O)C(=O)N[C@@H](CCCCN)C(=O)N[C@@H](CCCNC(=N)N)C(=O)N[C@@H](Cc1cnc[nH]1)C(=O)N[C@@H](Cc1cnc[nH]1)C(=O)NCC(=O)N[C@@H](Cc1ccc(O)cc1)C(=O)N[C@@H](CCCCN)C(=O)N[C@@H](CCCNC(=N)N)C(=O)N[C@@H](CCCCN)C(=O)N[C@@H](Cc1ccccc1)C(=O)N[C@@H](Cc1cnc[nH]1)C(=O)N[C@@H](CCC(=O)O)C(=O)N[C@@H](CCCCN)C(=O)N[C@@H](Cc1cnc[nH]1)C(=O)N[C@@H](Cc1cnc[nH]1)C(=O)N[C@@H](CO)C(=O)N[C@@H](Cc1cnc[nH]1)C(=O)N[C@@H](CCCNC(=N)N)C(=O)NCC(=O)N[C@@H](Cc1ccc(O)cc1)C(=O)O` gave a degradation of roughly 89.1% (PAGE band density; whole saliva supernatant G2 and G3, diluted 1:10; 100 µg/mL, 48 h, 37 °C).
`CC(=O)Oc1ccccc1C(=O)[O][Pt]([NH2])([NH2])([Cl])([Cl])[O]C(=O)C(Cl)Cl` has a degradation of greater than 50% (HPLC; phosphate buffer; 1 day, pH 7, 37 °C).
`CC[C@H](C)[C@@H]1NC(=O)[C@H](CCCNC(=N)N)NC(=O)[C@H](CC(=O)O)NC(=O)[C@H](CC(C)C)NC(=O)[C@H](CCCCN)NC(=O)[C@H](CC(C)C)NC(=O)CNC(=O)[C@H](Cc2ccccc2)NC(=O)[C@@H](NC(=O)CNC(=O)[C@H](CCCCN)NC(=O)[C@H](CO)NC(=O)[C@H](CC(C)C)NC(=O)CNC(=O)[C@H](CCCCN)NC(=O)[C@H](CCCCN)NC(=O)[C@H](CC(N)=O)NC(=O)[C@H](C)NC(=O)CNC(=O)[C@H](CCCCN)NC(=O)[C@H](Cc2ccc(O)cc2)NC(=O)[C@H](CCCCN)NC(=O)[C@H](CCCNC(=N)N)NC(=O)[C@H](C)NC(=O)[C@H](CC(N)=O)NC(=O)[C@@H]2CCCN2C(=O)[C@H](Cc2c[nH]cn2)NC(=O)[C@H](CCC(=O)O)NC(=O)[C@H](CCC(N)=O)NC(=O)[C@@H](N)CC(C)C)CSSC[C@@H](C(=O)O)NC(=O)CNC(=O)[C@H](CC(C)C)NC(=O)CNC(=O)[C@H](CO)NC(=O)[C@H](CCSC)NC(=O)[C@H](CO)NC(=O)CNC1=O` gave a degradation half-life of no more than 1 weeks (physiological pH and temperature).
With `CSCC[C@H](N)C(=O)N[C@@H](Cc1ccc(O)cc1)C(=O)N[C@@H](Cc1ccccc1)C(=O)O` the degradation was 5.57% (HPLC; solution; 1 mg/mL, 60 days, 25 °C).
With `CC(C)Cc1ccc(C(C)C(=O)[O][Pt]([NH2])([NH2])([Cl])([Cl])[O]C(=O)CCCc2ccccc2)cc1` (stereo not drawn) the degradation was roughly 25% (HPLC; phosphate buffer; 1 day, pH 7, 37 °C).
Under “degradation rate constant”, `CC(C)C(N)C(=O)OCC(=O)C1(O)CCC2C3CCC4=CC(=O)C=CC4(C)C3C(O)CC21C` (stereo not drawn) is recorded as 0.0416 ± 0.0005 min⁻¹ (SIRC cell homogenate; pH 7.4, 37 °C, protein 0.5 mg/mL).
`CCCCCCc1ccc(S(=O)(=O)N2CC2C(N)=O)cc1` (stereo not drawn) has a degradation of 49% (ring opening; aqueous Tris-HCl buffer; 3.5 h, pH 7.4, without DTT).
`COc1c2c(cc3oc(C)cc(=O)c13)OC(C(C)(C)O)C2` (stereo not drawn) gave a degradation of no more than 44.9% (rat liver homogenate 30%; 15 min, 37 °C).
`C#CCN(CCCNC(=O)CCCCC[N+]1=C(/C=C/C2=C(Cl)C(=C/C=C3\N(CCCCCC(=O)[O-])c4ccccc4C3(C)C)/CCC2)C(C)(C)c2ccccc21)CCCOc1ccc(Cl)cc1Cl` has a degradation half-life of 22 h (mouse plasma; high concentration).
Under “degradation rate constant”, `CCOC(=O)CCC(=O)Oc1ccc(/C=C/C(=O)/C=C(O)/C=C/c2ccc(OC(=O)CCC(=O)OCC)c(OC)c2)cc1OC` is recorded as 0.147 ± 0.027 min⁻¹ (human plasma; 1.5 µM, 37 °C).
For `CC1=C(C=O)C(C)(C)CC=C1`, the degradation was 68% (simulated intestinal fluid; 500 µM, 4 h, pH 6.8, 37 °C).

For quick reference, copied from above:
`CC[C@H](C)[C@@H]1NC(=O)[C@H](CCCNC(=N)N)NC(=O)[C@H](CC(=O)O)NC(=O)[C@H](CC(C)C)NC(=O)[C@H](CCCCN)NC(=O)[C@H](CC(C)C)NC(=O)CNC(=O)[C@H](Cc2ccccc2)NC(=O)[C@@H](NC(=O)CNC(=O)[C@H](CCCCN)NC(=O)[C@H](CO)NC(=O)[C@H](CC(C)C)NC(=O)CNC(=O)[C@H](CCCCN)NC(=O)[C@H](CCCCN)NC(=O)[C@H](CC(N)=O)NC(=O)[C@H](C)NC(=O)CNC(=O)[C@H](CCCCN)NC(=O)[C@H](Cc2ccc(O)cc2)NC(=O)[C@H](CCCCN)NC(=O)[C@H](CCCNC(=N)N)NC(=O)[C@H](C)NC(=O)[C@H](CC(N)=O)NC(=O)[C@@H]2CCCN2C(=O)[C@H](Cc2c[nH]cn2)NC(=O)[C@H](CCC(=O)O)NC(=O)[C@H](CCC(N)=O)NC(=O)[C@@H](N)CC(C)C)CSSC[C@@H](C(=O)O)NC(=O)CNC(=O)[C@H](CC(C)C)NC(=O)CNC(=O)[C@H](CO)NC(=O)[C@H](CCSC)NC(=O)[C@H](CO)NC(=O)CNC1=O` gave a degradation half-life of no more than 1 weeks (physiological pH and temperature).
